# Assay results collected from several papers.
# Numbered parts are unrelated; each lists some results of a single study. Substitutions count along the parent as printed.

# Study 1
# Target: Interferon regulatory factor 5, full length, phosphomimetic (IRF5, Homo sapiens, UniProt Q13568-2, residues 1-514, K96S/S451D/S453D/S456D/S462D)
# Technique: protein-binding microarray
# Molecule type: double-stranded DNA, one strand shown
# Sample: in vitro
# Concentration: 250 nM
# Notes: 60-bp whole probe
# With: salmon DNA 0.4 mg/ml
# Reference: random background probes
# Direction: higher = stronger binding
# Constant ends, left off below: GCCTAGCAC … GTCTTGATTCGCTTGACGCTGCTG
Strand,log fluorescence [z-score]
TAAGATATCGGGACTGGATTAGTGCTA,0.658
TCATATATGTGATTAAAACTGTGCTAG,0.767
TTAGATATCAGTACCGATTAGTGCTAG,1.3
TTAGATCTCAGTGTCGATTAGTGCTAG,0.572
TACAATTTGCTTTAGTCATTGTGCTAG,0.403
TCATTTGTCACTCTCAGACTGTGCTAG,0.397
TTAGAAATGAGACTGGATTAGTGCTAG,-0.0509
TTAGTACTGGACTTTCGGTTAGTGCTA,9.59
TTAGGTTCCCTTTTCCATTAGTGCTAG,0.578
GACGATATCGGGTTTGGAGACGTGCTA,1.37
GACCATTTCAGACTGGAGACGTGCTAG,-0.0861
GAGGGTATCGGACTGGGGACGTGCTAG,0.262
TACGATCTCAGTTTCGAGACGTGCTAG,4.65
TCATTTTTTTTTTACTTACTGTGCTAG,1.26
TTGGGTATCCTTTTCCTTTAGTGCTAG,0.231
TTAGGTATCGACATTCGGTTAGTGCTA,3.6
GACGGAGTGGGACTGGGGACGTGCTAG,-0.529
TTAGATATCAGACTGGATGAGTGCTAG,0.322
TCACATCTCAAGTAGCCTACTGTGCTA,0.204

# Study 2
# Target: Sal-like protein 4, full length isoform B (SALL4, Homo sapiens, UniProt Q9UJQ4-2, residues 1-616)
# Technique: universal PBM
# Molecule type: double-stranded DNA, one strand shown
# Sample: in vitro
# Concentration: not given
# Notes: 8-mer, flanks averaged, mean of replicates
# Direction: higher = stronger binding
Strand,E-score
TCGAAACA,0.12
AACGAACA,0.217
GCCGATAC,-0.156
ATACTAAT,0.319
ATGAAAGC,0.18
AACACGTA,0.261
TACGGTAA,0.223
AGCATGGG,-0.125
AGCCCTAC,-0.112
AATCTGAC,0.0828
TAAACGAA,0.209
GCATACCA,-0.0638
AAAGGCCT,-0.176
TCCGTCGA,-0.0889
CACTCAAA,0.0773
AAGACCGC,-0.0822
TCGGCTCA,-0.151
CTGTTTGC,0.086
CCGATAGG,-0.0471
AAACGTGT,0.126
ATTGCTAG,0.146
CCTTTTCA,0.0741
GGCGGGGA,-0.0725
ACTGAGCA,-0.131
GCGGCGCC,-0.4

# Study 3
# Target: RNA binding protein fox-1 homolog 2, RRM domain, GST-SBP tag (RBFOX2, Homo sapiens, UniProt O43251-10, residues 100-194)
# Technique: RNA Bind-n-Seq
# Molecule type: RNA
# Sample: in vitro
# Concentration: 365 nM
# Notes: natural RNA segment, single round, ends assumed
# Reference: no-protein control
# Direction: higher = stronger binding
# Residues (chain): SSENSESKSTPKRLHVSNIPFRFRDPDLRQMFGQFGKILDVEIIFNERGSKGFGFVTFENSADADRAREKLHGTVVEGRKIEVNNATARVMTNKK
Strand,RBNS enrichment (R)
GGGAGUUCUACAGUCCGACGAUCUCCAGCUUGAAGGAUUGCAUCCUGCAGGGAAUGAGCACACCUGCCAAGGACACGUGCGCCUGCCUUCCCGCUCCCUCUCUCUCAGAGAUUGCCCUUUCUUCCCGAGGGCUUGGAAUUCUCGGGUGCCAA,1.24
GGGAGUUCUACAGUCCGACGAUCAGAAGCCUCAUUCCAGAACCCAUCUGGCCAGAGAAGCAGCAGCAUCCUGGGGGAUGGCCGUGCAUGGGGUGUACACUCGCUAUAGGCAUAGGCCCGGCAUGGCUGUCGCUUGGAAUUCUCGGGUGCCAA,1.41
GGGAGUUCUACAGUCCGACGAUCCUUGUGGGAAGGCCAUCUCCUCCUGUCUGGUGGUACCUCCACUCUGGGCAGGGAGGGCCUGUCUGUGACUCGCUCUGGACCCCACUUCCCGCUCUGGCCAAGGGCUGUCUUGGAAUUCUCGGGUGCCAA,0.254
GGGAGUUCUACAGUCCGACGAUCGGCGUGGGUGCUCACCUCACUUAUCCUCGGGGUUUGGGACCUGGCAUCAGGACCUCUCCACCCAGGAUCCUCCAUGCCACAUGGUCACUGCUCUCCUCAGGGACUGGGACUGGAAUUCUCGGGUGCCAA,0.276
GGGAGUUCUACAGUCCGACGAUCUUGCUGAAUUGAACACUAUUGUGUCUUAAAUACUUGCACUAAAAAAGUGCACUGCAAGGCCAGAAAAUUUUACAAUCUUCUUUCUUUUAUGUUCUGUAGUGUGUUUACCCUGGAAUUCUCGGGUGCCAA,0.494
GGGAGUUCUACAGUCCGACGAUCUGCCACCCGGCCGUGGCCCGCCCUGGUCAGGCUGCUUCCUUAAUCAAGAAAACUACCUGGUGAUGCAAUUUUUUUUUUUAAUUUAACUUUAAAAUAAAUGCUGCAUUUGGUGGAAUUCUCGGGUGCCAA,0.402
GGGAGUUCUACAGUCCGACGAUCGAAAUUACAUGCUUGCCCAACACACUGUGAAAUAGUUACCAAAAUUUGUACAAAUGCAGCAUCUUCAUUCUUUCUGAGAAGACAAGAUGGUUUUCUUUACAUGAACAAAUUGGAAUUCUCGGGUGCCAA,0.533
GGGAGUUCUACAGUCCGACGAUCGAGCCCUAGUAAAGGAACUAUGCAAAUGCAGGCCACUCUCCCCACCACGUCUGUGCCCUGCACUGUCCCCACAGCCUUCCACACCCUGUGCAUAGGCAGCCCUCUCACGUUGGAAUUCUCGGGUGCCAA,0.634
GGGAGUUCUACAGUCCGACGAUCCACCCACACUAGCCCCAGAAUACGGUCCCUCUUCACCUUCUGAGGCCCACGAUAGACCAGCUGUAGCUCAUUCCAGCCUGUACCUUGGAUGAGGGGUAGCCUCCCACUGCUGGAAUUCUCGGGUGCCAA,0.662
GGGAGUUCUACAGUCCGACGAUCACCUGCCCCCUACUGAUGAUGAAGAUUUUUACACCACCUUCUCCUUGGUAACAGAUAAGAGUCUUUCCACUUCAAUCUUCGAAGGUGGCUACAAAGCACAUGCGCCCAAGUGGAAUUCUCGGGUGCCAA,0.655
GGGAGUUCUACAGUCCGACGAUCGAGGUCAAGGACCUUCCUGUGUAGUUGGUGCAAAAGCAAUCUCCACAGGACAGCACUGCUUCCAUGCUUCAUACAUCAGGAAAUGAGGCCAGAACUUGAGUAUUUACUAAUGGAAUUCUCGGGUGCCAA,0.227
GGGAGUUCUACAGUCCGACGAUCGCUUCCCCGAAAUGGUAUCACACAGGUCAUCCAUGAAUCGCUGUAGUGGCUAGGGGUAUGUGGGACUGCGGCACUGGACUGGGUGCUUCAUGGUGGGCCCUGUGCUCUGUUGGAAUUCUCGGGUGCCAA,0.637

# Study 4
# Target: CCND3, cyclin fold, Cln2 fusion (human)
# Technique: yeast growth competition, sequencing
# Sample: yeast
# Notes: weak parent motif
# Reference: not given
# Direction: higher = stronger binding
# Starting sequence: SCAPER docking peptide (human); SNARRSLNFGGST
Variant,normalised enrichment score
SNARRSLNFGGSN [T13N],0.15
SNAPRSLNFGGST [R4P],0.0627
RNARRSLNFGGST [S1R],0.132
SNARRSLNFGCST [G11C],0.12
SNARRSYNFGGST [L7Y],0.102
SNAERSLNFGGST [R4E],-0.0465
SNARRGLNFGGST [S6G],0.207
SNARRSLNQGGST [F9Q],0.117
SNARRKLNFGGST [S6K],0.181
SNARRSLPFGGST [N8P],0.11
SNARISLNFGGST [R5I],0.155
SNARRTLNFGGST [S6T],0.129
SNARRSLNFGGGT [S12G],0.199
KNARRSLNFGGST [S1K],0.0973
SNARRSQNFGGST [L7Q],0.16
SNARRSLNFGGSS [T13S],0.14
ANARRSLNFGGST [S1A],0.168
SNADRSLNFGGST [R4D],0.0806
SRARRSLNFGGST [N2R],0.13
SNKRRSLNFGGST [A3K],0.103

# Study 5
# Target: Ras GTPase-activating protein-binding protein 1, C-terminal RGG region (G3BP1, Homo sapiens, UniProt Q13283)
# UniProt Q13283, sequence (whole entry, looked up): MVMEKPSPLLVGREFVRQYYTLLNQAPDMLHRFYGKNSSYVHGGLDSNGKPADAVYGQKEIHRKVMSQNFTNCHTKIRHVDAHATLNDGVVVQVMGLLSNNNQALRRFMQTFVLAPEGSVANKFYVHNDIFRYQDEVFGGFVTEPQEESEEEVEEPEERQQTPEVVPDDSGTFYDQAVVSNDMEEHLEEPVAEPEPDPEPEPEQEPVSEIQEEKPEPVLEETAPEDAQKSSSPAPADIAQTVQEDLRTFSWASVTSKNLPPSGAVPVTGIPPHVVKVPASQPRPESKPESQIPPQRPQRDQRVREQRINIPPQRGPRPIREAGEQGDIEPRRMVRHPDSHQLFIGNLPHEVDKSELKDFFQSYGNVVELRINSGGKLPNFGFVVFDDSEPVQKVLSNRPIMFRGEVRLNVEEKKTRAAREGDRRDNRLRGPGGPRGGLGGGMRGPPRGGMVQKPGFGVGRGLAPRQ
# Technique: RNA Bind-n-Seq
# Molecule type: RNA
# Sample: in vitro
# Concentration: 1 µM
# Notes: whole 134-nt RNA, ends assumed
# With: 150 mM KCl
# Reference: input library
# Direction: higher = stronger binding
Strand,log2 enrichment
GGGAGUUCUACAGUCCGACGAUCAAGUCCUGUGCUACACAUCGUAUGUACCGAAUCGGCCCGGGGCCCGGGGCCCGGGGAAAGUAUUAUGUUACGCCGUUCGGAUCUGCACUUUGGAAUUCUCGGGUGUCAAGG,-2.29
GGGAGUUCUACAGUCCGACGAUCAGUCCUGUGCUACACAUCGUAUGUACCGAAUCGGGGUUUGGGGAGGGGAAAAAGGGGAAAGUAUUAUGUUACGCCGUUCGGAUCUGCACUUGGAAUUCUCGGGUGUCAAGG,1.71
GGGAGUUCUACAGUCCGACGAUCGUCCUGUGCUACACAUCGUAUGUACCGAAUCAAACCCCCAAACCCCCCCAAACCCAAAAAAGUAUUAUGUUACGCCGUUCGGAUCUGCACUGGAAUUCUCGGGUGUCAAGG,-0.922
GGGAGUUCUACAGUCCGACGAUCCACAGACAACACGCACCCACACAGACACAGAGGGAAGGGGUUGGGAUGGGGACAGGGUGCACAGCAGGGGGGGGUAGGACCCCAGCCCCUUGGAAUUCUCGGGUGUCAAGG,-0.975
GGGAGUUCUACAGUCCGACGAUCCAAGUCCUGUGCUACACAUCGUAUGUACCGAAUCGGGGUUGGGGUUGGGGUUGGGGAAAGUAUUAUGUUACGCCGUUCGGAUCUGCACUUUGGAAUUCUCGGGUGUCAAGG,2.42
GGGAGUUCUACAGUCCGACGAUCUCCUCAAGUCCUGUGCUACACAUCGUAUGUACCGAAUCGGGGAGGAGGGAGGAAAGUAUUAUGUUACGCCGUUCGGAUCUGCACUUCCAGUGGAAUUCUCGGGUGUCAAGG,-0.525
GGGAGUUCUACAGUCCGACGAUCCAAGUCCUGUGCUACACAUCGUAUGUACCGAAUCGGGUUUGGGUUUGGGGUUUGGAAAGUAUUAUGUUACGCCGUUCGGAUCUGCACUUCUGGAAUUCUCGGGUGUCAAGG,-0.835
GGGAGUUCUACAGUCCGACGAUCACCAUGCAGGUGGGCAUCUUUGGGAAGUGGGGCAAGGGGGGGAUAGGGAGGGGGGUAACACUUUGGGAACAGGUGGUCCCAAAACGUUUCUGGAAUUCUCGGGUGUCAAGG,-0.847
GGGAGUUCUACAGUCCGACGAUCCAAGUCCUGUGCUACACAUCGUAUGUACCGAAUCGGAAAAAAAGGUUUUUGGUGGAAAGUAUUAUGUUACGCCGUUCGGAUCUGCACUUCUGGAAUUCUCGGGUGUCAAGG,-1.83
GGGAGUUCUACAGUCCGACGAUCAGUCCUGUGCUACACAUCGUAUGUACCGAAUCAAACCCCCAAAUUUUUAAACCCAAAAAAGUAUUAUGUUACGCCGUUCGGAUCUGCACUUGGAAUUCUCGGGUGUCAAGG,-0.943
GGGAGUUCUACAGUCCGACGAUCAGUCACUUUUUAAUUUUAUUUAUUAUUUCUCCUCUUAGACCGCAGGAUGGAAACAAGCCCACUGAGACUAGUCAACCUCAAUCUAGCACAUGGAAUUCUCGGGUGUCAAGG,-0.525
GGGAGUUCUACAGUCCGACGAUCAAGUCCUGUGCUACACAUCGUAUGUACCGAAUCGGAAAAAAAGGAGGUUUUUUUGGAAAGUAUUAUGUUACGCCGUUCGGAUCUGCACUUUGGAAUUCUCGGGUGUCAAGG,-2.03
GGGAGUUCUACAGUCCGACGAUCCACAGACAACACGCACCCACACAGACACAGAGGGACGGGGUUGGGAUGGGGACAGGGUGCACAGCAGGGCGGGGUAGGACCCCAGCCCCUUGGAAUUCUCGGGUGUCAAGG,0.473
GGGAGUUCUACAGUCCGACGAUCUGGCCCUGGUGGCAUGCGGGGAGGUAGAGGUGGCCUCAUGGAUCGUGGUGGUCCCGGUGGAAUGUUCAGAGGUGGCCGUGGUGGAGACAGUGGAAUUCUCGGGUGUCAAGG,2.51
